Measurements pooled from the literature.
Every numbered part comes from another study and shows a few of its results, in no order.
UniProt P01106, sequence (368-449, looked up): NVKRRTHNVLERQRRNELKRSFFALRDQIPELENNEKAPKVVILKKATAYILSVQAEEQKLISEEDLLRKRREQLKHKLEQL

Sample 1
Target: Replicase polyprotein 1ab, nsp13 helicase (rep, Severe acute respiratory syndrome coronavirus 2, UniProt P0DTD1)
Action: inhibitor
Tested at: 20 µM
SMILES	inhibition [%]
CCOC(=O)N1c2ccc(C(F)(F)F)cc2[C@@H](N(Cc2cc(C(F)(F)F)cc(C(F)(F)F)c2)C(=O)OC)C[C@H]1CC	2.29
Cc1ccc(-c2nn(C(C)(C)CNC(=O)c3ncccc3C)c3ncnc(N)c23)cc1	8.57
CC(=O)c1ccc(NS(C)(=O)=O)c(Oc2ccc(F)cc2F)c1	2.39
CCOC(=O)[C@@H](N)CCC(=O)N[C@@H](CSCc1ccccc1)C(=O)N[C@@H](C(=O)OCC)c1ccccc1	8.97
O=C(O)[C@H]1O[C@@H](Oc2cc3oc(-c4ccccc4)cc(=O)c3c(O)c2O)[C@H](O)[C@@H](O)[C@@H]1O	3.11
O=C(NC1CCNCC1)[C@@H]1CC[C@@H]2CN1C(=O)N2OS(=O)(=O)O	-4.57
c1ccc2c(c1)Sc1ccccc1N2C[C@@H]1CN2CCC1CC2	5.21
O=C(O)Cc1cccc(OCCCN(Cc2cccc(C(F)(F)F)c2Cl)CC(c2ccccc2)c2ccccc2)c1	1.98
Cc1cc(NC(=O)Nc2ccc(N(C)C)cc2)c2cc(F)cc(F)c2n1	8.51
CC(C)(C)c1ccc(-c2nc3c(N4CCN(Cc5ccc6nccnc6c5)CC4)cccc3[nH]2)cc1	11.9
N[C@@H]1c2cccnc2[C@H](OC(=O)N2CCC(n3c(=O)[nH]c4ncccc43)CC2)CC[C@H]1c1cccc(F)c1F	-0.04
O=C(O)CCC(=O)Nc1ccc(S(=O)(=O)Nc2nccs2)cc1	3.61
Cc1cnc(CNC(=O)c2c(=O)c3ccc(N4CCCN(C)CC4)nc3n3c2sc2ccccc23)cn1	7.79
CS(=O)(=O)Oc1ccc2c(NC(N)=O)c(C(=O)c3ccc(Cl)cc3Cl)oc2c1	6.11
CC(C)(CO)CCCCCCC(C)(C)CO	-3.37
CN(C)C(=O)CCSC(SCCC(=O)O)c1cccc(/C=C/c2ccc3ccc(Cl)cc3n2)c1 (stereo not shown)	12.6
CC(C)(C)C(=O)NCCCC(=O)O	1.43
Cc1cc(C)n(-c2cccc([C@H](CC(=O)O)CN3CC[C@@H](CCc4ccc5c(n4)NCCC5)C3)c2)n1	3.76
COc1ccc(CNC(=O)Nc2ncc([N+](=O)[O-])s2)cc1	9.66
N#Cc1cnc2c(Cl)cc(NCc3cn(CCN4CCCCCC4)nn3)cc2c1Nc1ccc(F)c(Cl)c1	4.07
CC(C)Nc1cc(-c2c[nH]c(C(=O)N[C@H](CO)c3cccc(Cl)c3)c2)c(Cl)cn1	7.46
COc1cc([S+](C)[O-])ccc1-c1nc2cccnc2[nH]1 (stereo not shown)	0.78
NC(=O)c1cnc2[nH]ccc2c1N[C@@H]1[C@@H]2CC3C[C@H]1C[C@@](O)(C3)C2	5.07
C[C@]12CC[C@H]3[C@@H](CC[C@@]45O[C@@H]4C(O)=C(C#N)C[C@]35C)[C@@H]1CC[C@@H]2O	0.75

Sample 2
Target: Sal-like protein 4, full length isoform B (SALL4, Homo sapiens, UniProt Q9UJQ4-2, residues 1-616)
Technique: universal PBM
Molecule type: double-stranded DNA, one strand shown
Medium: in vitro
Tested at: not given
Setting: 8-mer, flanks averaged, mean of replicates
Direction: higher = stronger binding
Sequence	E-score
ATCAGGAA	0.039
CAGCGTAA	0.043
CGTAAAGA	0.0287
GTCGATCA	0.0371
CGCGGCGC	-0.228
ACGGATCA	-0.0736
AACCAAAG	0.0998
ACCCATGG	-0.349

Sample 3
Cell line: HEK-293T/ACE2
Tested at: concentration not given
Time: 16 (unit not given)
Relative to: vehicle
Compound	viability [%]
Cc1ccc(Nc2nccc(N(C)c3ccc4c(C)n(C)nc4c3)n2)cc1S(N)(=O)=O	88.2
COC(=O)[C@@H]1CC2=CC(=O)CC[C@]2(C)[C@@]23O[C@@H]2C[C@@]2(C)[C@@H](CC[C@@]24CCC(=O)O4)[C@H]13	102
CO[C@@]1(NC(=O)Cc2cccs2)C(=O)N2C(C(=O)O)=C(COC(N)=O)CS[C@@H]21	102
COC(=O)N[C@H](C(=O)N1CCC[C@H]1c1nc(-c2ccc(-c3ccc(-c4c[nH]c([C@@H]5CCCN5C(=O)[C@@H](NC(=O)OC)C(C)C)n4)cc3)cc2)c[nH]1)C(C)C	104
CCCNS(=O)(=O)Nc1ncnc(OCCOc2ncc(Br)cn2)c1-c1ccc(Br)cc1	98.9

Sample 4
Target: Replicase polyprotein 1ab, main protease (rep, Severe acute respiratory syndrome coronavirus 2, UniProt P0DTD1)
Observed: enzyme activity
Action: inhibitor
Tested at: 20 µM
Setting: hit confirmation, no DTT
SMILES	inhibition
O=C1c2c(O)cc(O)cc2O[C@H](c2cc(O)c(O)c(O)c2)[C@H]1O	99.7%
C[n+]1c2cc(N)ccc2cc2ccc(N)cc21.Nc1ccc2cc3ccc(N)cc3nc2c1	68%
NC(Cc1cc(O)c(O)cc1O)C(=O)O (racemic)	83.9%

Sample 5
Target: Phosphate system positive regulatory protein PHO4, full length, GST-tagged (PHO4, Saccharomyces cerevisiae, UniProt P07270, residues 1-312)
Technique: competition protein-binding microarray
Molecule type: double-stranded DNA, one strand shown
Medium: in vitro
Tested at: 2 µM
Setting: whole 60-bp probe, lowest competitor level
Together with: Cbf1 competitor, 0.05 µM
Direction: higher = stronger binding
Constant ends, left off below: … GTCTTGATTCGCTTGACGCTGCTG
Target sequence (chain): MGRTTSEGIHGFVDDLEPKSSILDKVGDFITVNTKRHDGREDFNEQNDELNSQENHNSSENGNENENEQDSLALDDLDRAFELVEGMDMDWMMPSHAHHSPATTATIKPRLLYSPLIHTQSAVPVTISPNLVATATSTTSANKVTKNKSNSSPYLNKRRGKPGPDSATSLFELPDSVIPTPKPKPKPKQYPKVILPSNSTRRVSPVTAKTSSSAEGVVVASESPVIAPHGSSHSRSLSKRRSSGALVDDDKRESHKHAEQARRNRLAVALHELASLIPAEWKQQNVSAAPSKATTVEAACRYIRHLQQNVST
Sequence	fluorescence intensity [a.u.]
CCGCGGAATAGCGTTCCCGTGGGTAGAAAAGCAGCA	7560
CTAACGAAGGTTTCGCACGTGTTTTACAAGCCAAGT	18700
CGGGGTTAAGTTTGCAGAGTGGGTGGCTTGCAGCAG	4340
AACCTACCATGGTAGCACATGAAGAAGCAACCACCC	6140
CTTTCCCGATCTTGAGTTGTGGGTGTAGCACATTTG	4840
AGGTTTTGCTAAATCTATGTGACAGTAATGACCAGG	3530
CATACCCAACCTTTTCACGTGCTCTAAGATATTTGT	19400
TATAGTCAGCCTCAACATGTGGCTATGATGACCAGC	8920

Mixed results
Technique: protein-binding microarray
Molecule type: double-stranded DNA, one strand shown
Medium: in vitro
Tested at: not given
Setting: k-mer, scored over probes, only values ≥0.25
Direction: higher = stronger binding
CTCF: Transcriptional repressor CTCF (CTCF, Homo sapiens, UniProt P49711, residues 1-727, full length assumed)
UniProt P49711, sequence (whole entry, looked up): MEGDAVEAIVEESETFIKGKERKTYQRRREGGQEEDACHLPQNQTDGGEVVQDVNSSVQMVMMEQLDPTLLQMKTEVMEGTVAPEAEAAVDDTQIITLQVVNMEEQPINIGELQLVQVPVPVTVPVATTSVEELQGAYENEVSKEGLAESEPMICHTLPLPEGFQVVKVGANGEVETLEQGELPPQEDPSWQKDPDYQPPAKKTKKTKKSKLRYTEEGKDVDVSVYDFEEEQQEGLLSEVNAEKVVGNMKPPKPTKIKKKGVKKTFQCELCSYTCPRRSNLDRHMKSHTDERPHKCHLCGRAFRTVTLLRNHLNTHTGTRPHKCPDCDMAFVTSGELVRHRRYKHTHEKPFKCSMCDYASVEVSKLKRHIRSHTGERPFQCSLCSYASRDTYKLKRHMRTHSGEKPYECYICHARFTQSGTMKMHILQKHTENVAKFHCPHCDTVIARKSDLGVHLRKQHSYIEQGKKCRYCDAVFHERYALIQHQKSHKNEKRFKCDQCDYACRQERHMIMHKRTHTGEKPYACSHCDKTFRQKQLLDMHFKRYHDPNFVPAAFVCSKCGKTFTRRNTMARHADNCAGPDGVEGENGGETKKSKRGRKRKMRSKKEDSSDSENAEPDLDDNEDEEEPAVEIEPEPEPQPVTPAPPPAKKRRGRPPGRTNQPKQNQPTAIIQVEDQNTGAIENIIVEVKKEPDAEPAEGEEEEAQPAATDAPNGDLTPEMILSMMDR
Sequence	target	E-score
GCGCCTCC	CTCF	0.254
GTATTTTA	CTCF	0.263
CATGCACC	Myc proto-oncogene protein, bHLH-zipper, MAX partner unstated (MYC, Homo sapiens, UniProt P01106, residues 368-449)	0.393
CACGGGG	Microphthalmia-associated transcription factor, full length (MITF, Homo sapiens, UniProt O75030-10, residues 1-413)	0.423

Some of these lines once more (sample 2):
Sequence	E-score
CGTAAAGA	0.0287
AACCAAAG	0.0998
ACCCATGG	-0.349
ATCAGGAA	0.039
GTCGATCA	0.0371
CAGCGTAA	0.043
